Measurements of several laboratories.
Protocols differ between the studies behind these lines. “And” joins repeats or separate records; there may be more than shown.
ache: Acetylcholinesterase (ache, Electrophorus electricus, UniProt O42275)
Sequence of UniProt O42275 (whole entry, looked up): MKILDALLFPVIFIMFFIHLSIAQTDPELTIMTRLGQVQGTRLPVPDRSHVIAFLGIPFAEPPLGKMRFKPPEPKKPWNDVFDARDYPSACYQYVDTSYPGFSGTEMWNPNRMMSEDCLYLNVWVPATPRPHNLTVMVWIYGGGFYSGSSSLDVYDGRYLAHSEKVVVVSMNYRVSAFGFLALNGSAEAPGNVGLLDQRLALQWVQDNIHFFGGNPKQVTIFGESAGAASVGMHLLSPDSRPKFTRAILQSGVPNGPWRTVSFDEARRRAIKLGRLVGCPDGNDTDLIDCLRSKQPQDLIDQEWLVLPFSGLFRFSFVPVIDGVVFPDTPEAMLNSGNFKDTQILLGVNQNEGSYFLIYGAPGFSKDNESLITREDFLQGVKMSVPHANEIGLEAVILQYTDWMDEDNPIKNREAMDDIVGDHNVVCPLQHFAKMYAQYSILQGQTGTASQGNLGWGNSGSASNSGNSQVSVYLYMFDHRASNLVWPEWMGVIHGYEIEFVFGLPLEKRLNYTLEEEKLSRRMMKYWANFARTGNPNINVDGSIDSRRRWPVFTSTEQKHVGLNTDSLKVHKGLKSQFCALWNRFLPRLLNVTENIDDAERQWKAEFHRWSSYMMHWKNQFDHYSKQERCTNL
dcp2 with Dcp1: mRNA decapping complex subunit 2, with Dcp1 (dcp2, Schizosaccharomyces pombe, UniProt O13828)
Sequence of UniProt O13828 (whole entry, looked up): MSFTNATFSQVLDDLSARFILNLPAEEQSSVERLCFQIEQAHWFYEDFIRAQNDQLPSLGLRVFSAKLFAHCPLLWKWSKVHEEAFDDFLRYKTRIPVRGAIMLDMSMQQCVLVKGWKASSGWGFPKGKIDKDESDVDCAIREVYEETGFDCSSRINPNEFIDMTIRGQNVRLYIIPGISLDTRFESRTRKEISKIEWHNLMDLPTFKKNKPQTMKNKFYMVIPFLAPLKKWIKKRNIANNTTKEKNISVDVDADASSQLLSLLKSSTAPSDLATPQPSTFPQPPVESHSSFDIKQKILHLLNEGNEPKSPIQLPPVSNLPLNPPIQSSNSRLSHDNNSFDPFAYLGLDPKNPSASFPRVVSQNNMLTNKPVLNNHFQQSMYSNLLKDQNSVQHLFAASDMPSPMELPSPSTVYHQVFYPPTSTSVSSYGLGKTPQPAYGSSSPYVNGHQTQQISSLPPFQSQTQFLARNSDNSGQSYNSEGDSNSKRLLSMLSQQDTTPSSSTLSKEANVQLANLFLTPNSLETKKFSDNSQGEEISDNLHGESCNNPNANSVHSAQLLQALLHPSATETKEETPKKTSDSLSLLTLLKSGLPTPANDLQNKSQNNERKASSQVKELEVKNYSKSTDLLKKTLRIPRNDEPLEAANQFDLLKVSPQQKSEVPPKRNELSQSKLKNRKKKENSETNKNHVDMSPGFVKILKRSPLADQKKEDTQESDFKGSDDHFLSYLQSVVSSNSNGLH
ULK3: Serine/threonine-protein kinase ULK3 (ULK3, Homo sapiens, UniProt Q6PHR2)
Sequence of UniProt Q6PHR2 (whole entry, looked up): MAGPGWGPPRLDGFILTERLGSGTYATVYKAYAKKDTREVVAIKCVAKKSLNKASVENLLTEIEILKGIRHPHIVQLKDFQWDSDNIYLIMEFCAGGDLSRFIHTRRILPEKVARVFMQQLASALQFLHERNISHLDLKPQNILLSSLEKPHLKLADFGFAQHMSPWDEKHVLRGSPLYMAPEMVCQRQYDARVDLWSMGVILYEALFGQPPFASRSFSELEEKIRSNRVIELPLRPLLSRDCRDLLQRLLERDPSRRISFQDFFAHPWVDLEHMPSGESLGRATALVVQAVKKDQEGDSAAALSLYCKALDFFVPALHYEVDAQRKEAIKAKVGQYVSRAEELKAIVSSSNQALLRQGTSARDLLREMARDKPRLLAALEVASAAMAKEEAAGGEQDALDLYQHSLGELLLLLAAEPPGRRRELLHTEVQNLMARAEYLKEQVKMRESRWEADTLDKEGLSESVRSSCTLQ
Sequence of UniProt P25100 (whole entry, looked up): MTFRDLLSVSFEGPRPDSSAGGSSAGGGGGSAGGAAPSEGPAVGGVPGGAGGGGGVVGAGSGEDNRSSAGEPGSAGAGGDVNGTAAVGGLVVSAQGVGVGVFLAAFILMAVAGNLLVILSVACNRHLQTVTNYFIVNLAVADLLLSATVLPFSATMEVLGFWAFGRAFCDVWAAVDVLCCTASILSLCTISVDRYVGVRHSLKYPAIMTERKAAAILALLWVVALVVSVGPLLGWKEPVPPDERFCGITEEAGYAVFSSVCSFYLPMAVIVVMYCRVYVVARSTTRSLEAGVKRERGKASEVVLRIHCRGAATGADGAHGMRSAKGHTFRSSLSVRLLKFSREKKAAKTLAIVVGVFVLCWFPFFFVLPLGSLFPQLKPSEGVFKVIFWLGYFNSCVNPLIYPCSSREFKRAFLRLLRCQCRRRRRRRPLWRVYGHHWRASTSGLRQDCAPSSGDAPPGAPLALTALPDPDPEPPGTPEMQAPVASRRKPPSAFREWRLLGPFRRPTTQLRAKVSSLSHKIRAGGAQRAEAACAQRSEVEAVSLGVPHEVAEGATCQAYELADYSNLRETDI
Sequence of UniProt Q9NYV4 (whole entry, looked up): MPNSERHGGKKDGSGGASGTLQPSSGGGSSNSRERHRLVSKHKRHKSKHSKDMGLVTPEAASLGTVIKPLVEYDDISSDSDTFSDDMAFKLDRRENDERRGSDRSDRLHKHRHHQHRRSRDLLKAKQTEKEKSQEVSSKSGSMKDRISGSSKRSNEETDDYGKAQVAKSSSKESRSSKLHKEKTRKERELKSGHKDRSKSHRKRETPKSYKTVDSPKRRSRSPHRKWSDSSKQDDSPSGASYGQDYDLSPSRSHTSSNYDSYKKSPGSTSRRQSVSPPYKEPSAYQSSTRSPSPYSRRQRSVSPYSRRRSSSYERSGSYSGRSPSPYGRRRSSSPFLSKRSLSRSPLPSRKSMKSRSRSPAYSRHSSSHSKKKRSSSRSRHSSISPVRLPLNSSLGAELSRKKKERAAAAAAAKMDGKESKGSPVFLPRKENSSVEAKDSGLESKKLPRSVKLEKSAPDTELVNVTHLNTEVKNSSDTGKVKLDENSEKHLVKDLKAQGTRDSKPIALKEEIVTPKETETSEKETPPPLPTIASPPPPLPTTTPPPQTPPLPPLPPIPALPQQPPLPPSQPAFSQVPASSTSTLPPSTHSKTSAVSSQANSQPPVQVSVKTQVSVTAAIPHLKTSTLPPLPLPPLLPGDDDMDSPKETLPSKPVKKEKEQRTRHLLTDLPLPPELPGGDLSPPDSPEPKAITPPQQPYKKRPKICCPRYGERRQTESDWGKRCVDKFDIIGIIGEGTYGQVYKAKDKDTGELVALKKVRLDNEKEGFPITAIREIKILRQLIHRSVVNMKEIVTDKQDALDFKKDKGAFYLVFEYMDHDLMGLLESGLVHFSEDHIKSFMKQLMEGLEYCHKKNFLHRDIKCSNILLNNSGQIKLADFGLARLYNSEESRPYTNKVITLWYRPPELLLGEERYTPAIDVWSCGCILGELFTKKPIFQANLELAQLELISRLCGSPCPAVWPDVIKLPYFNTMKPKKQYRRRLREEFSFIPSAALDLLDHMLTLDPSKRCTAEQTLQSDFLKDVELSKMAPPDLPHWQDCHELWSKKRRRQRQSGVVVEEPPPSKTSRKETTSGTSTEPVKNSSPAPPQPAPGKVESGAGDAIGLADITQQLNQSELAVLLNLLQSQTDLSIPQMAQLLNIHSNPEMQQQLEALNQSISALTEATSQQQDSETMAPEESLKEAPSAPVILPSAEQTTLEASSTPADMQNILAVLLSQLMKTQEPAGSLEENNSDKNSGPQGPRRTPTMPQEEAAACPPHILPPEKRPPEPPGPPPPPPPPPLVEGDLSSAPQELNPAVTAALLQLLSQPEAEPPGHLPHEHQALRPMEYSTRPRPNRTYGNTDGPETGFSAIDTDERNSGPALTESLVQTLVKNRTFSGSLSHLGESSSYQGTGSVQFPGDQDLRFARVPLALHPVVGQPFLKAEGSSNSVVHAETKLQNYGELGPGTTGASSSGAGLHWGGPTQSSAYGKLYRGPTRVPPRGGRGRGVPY
Sequence of UniProt P03372 (whole entry, looked up): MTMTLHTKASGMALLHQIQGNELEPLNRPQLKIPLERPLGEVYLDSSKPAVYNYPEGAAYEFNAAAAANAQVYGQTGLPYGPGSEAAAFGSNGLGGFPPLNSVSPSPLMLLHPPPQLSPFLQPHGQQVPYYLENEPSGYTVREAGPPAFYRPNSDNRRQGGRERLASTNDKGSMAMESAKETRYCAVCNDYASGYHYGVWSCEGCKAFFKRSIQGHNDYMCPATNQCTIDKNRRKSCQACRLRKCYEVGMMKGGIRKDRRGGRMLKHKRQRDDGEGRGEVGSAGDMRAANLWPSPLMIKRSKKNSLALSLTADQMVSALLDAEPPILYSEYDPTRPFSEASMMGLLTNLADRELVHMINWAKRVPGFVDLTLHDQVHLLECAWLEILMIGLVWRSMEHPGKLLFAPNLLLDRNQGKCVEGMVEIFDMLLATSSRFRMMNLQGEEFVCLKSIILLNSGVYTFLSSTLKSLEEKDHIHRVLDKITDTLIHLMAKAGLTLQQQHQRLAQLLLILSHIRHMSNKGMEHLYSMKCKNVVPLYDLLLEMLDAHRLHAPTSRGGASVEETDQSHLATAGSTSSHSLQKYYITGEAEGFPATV
Sequence of UniProt P27338 (whole entry, looked up): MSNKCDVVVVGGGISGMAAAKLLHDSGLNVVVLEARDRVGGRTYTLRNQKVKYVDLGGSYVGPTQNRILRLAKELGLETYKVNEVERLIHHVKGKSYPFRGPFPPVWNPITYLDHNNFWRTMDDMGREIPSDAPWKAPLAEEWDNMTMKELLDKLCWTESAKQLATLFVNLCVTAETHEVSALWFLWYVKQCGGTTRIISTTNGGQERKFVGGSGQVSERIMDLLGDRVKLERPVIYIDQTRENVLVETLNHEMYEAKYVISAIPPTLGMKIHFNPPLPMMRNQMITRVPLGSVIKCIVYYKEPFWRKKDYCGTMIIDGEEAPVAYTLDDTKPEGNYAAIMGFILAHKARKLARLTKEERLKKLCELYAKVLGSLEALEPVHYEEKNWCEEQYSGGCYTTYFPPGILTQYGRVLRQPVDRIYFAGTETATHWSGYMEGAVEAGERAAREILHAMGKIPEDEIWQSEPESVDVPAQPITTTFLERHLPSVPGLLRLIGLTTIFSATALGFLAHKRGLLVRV

`CN(/N=C/c1ccccc1C(=O)O)c1nc(-c2ccccc2Cl)cs1` has an inhibition of 7.81% and 9.66% (SRM kinase; kinase activity, inhibitor; 1 µM).
With `C/C(=N\OCCCN1CCCCC1)c1ccc(C(F)(F)F)cc1` the inhibition was 31% (HTR1B (Homo sapiens, UniProt P28222); antagonist, cAMP; 10 µM).
The inhibition of `CS(C)(=O)=Nc1ccc(-c2ccc(-c3nc4cc(O[C@@H]5CO[C@H]6[C@@H]5OC[C@H]6O)[nH]c4cc3F)cc2)cc1` is reported as 7% (ADORA3 (Homo sapiens, UniProt P0DMS8); calcium signal, antagonist; 10 µM).
With `C[C@H](NCc1ccc(-c2ccc(C(F)(F)F)cc2)cc1)C(N)=O` the inhibition was 8% (ERBB2 (Homo sapiens, UniProt P04626); cell-free assay, competition with immobilised ligand; 1 µM).
For `CCOC(=O)[C@](CC)(CCCSCCOCCOCCNC(=O)c1ccc(-c2c3ccc(=N)c(S(=O)(=O)O)c-3oc3c(S(=O)(=O)O)c(N)ccc23)c(C(=O)O)c1)NC(=O)c1ccc(C2CC2)c(Cc2ccc(F)cc2)n1`, the inhibition was 4% (PCP site (NMDA receptor); specific binding, antagonist radioligand binding; 10 µM).
The inhibition of `O=C(O)c1ccccc1/C=N/Nc1nc(-c2ccccc2Cl)cs1` is reported as 20.9% and 20.7% (NPM1-ALK fusion kinase; kinase activity, inhibitor; 1 µM).
`N[C@H](C(=O)N1CCCC1)C1CCN(c2nccc3c(-c4ncc(Cl)cc4Cl)cccc23)CC1` gave an inhibition of 21% (NMDA receptor; binding, radioligand binding; 10 µM).
For `NCCc1c[nH]c2ccc(Cl)cc12`, the inhibition was 40.3% (ache; enzyme activity, inhibitor, Ellman; 20 µM).
The inhibition of `CCN(N=Cc1cnc2ccc(Br)cn12)S(=O)(=O)c1cc([N+](=O)[O-])ccc1C` is reported as 27% (PIK3CA (Homo sapiens, UniProt P42336, K776A); enzyme activity; 60 nM).
`O=C(NC1CCN(c2ncnc3[nH]cnc23)CC1)c1cccc(NS(=O)(=O)c2ccc(C(F)(F)F)cc2)c1` has an inhibition of -7.52% (Genome polyprotein, NS5 methyltransferase domain (Zika virus, UniProt Q32ZE1); NS5 enzyme activity, inhibitor; 50 µM).
With `O=C(c1cc(Cc2n[nH]c(=O)c3ccccc23)ccc1F)N1CC(CNC2CC2)C1` the inhibition was 37% (MAOB (Homo sapiens, UniProt P27338); enzyme activity, inhibitor; 10 µM).
With `C[n+]1cn([C@@H]2O[C@H](COP(=O)(O)NP(=O)([O-])OP(=O)(O)O)[C@@H](O)[C@H]2O)c2nc(N)nc(O)c21` the inhibition was 15.1% (dcp2 with Dcp1; 200 µM, 0.5 h).
With `CN[C@@H]1[C@H](O)[C@H](NC)[C@H]2O[C@]3(O)[C@H](O[C@@H]2[C@H]1O)O[C@H](C)C[C@H]3NC(=O)Cc1cc(Cl)ccn1` the inhibition was -2% (ADRA1D (Homo sapiens, UniProt P25100); ligand displacement, radioligand; 10 µM).
`CCc1nnc(-c2c(OC)cc(-c3cnc4cc(-c5cnn(C)c5)ccn34)cc2OC)o1` has an inhibition of -3% (NR3C1 (Homo sapiens, UniProt P04150); agonist radioligand, radioligand binding; 10 µM, SafetyScreen44 GR).
The inhibition of `CN[C@@H]1[C@H](O)[C@H](NC)[C@H]2O[C@]3(O)[C@H](O[C@@H]2[C@H]1O)O[C@H](C)C[C@H]3NC(=O)Cc1ccc(Cl)cn1` is reported as -24% (Estrogen receptor (ESR1, Homo sapiens, UniProt P03372); ligand displacement, radioligand; 10 µM).
With `BP(=O)(OC[C@H]1O[C@@H](n2c[n+](C)c3c(O)nc(N)nc32)[C@H](O)[C@@H]1O)OP(=O)([O-])CP(=O)(O)O` (stereo partly shown) the inhibition was 43% (dcp2 with Dcp1; 200 µM, 0.25 h).
The inhibition of `O=C1NCN(c2ccccc2)C12CCN(Cc1ccccc1)CC2` is reported as 6.5% (PDE6D (Homo sapiens, UniProt O43924); enzyme activity, inhibitor; 5 µM).
The inhibition of `CN(C)[C@H]1C[C@@]23CC[C@@]4(O2)C(=CC[C@]2(C)[C@@H](c5ccc6ccncc6c5)CC[C@H]24)C=C3[C@@H](O)[C@@H]1O` is reported as -1.2% (CDK12 (Homo sapiens, UniProt Q9NYV4); ATP probe labelling, inhibitor, KiNativ profiling; 1 µM).
`C=CC(=O)Nc1cc(-c2nn(C3CCC(N4CCN(C(C)=O)CC4)CC3)c3ncnc(N)c23)ccc1Oc1ccccc1` (stereo not shown) has an inhibition of -0.2% (ULK3; inhibitor, KiNativ profiling; biochemical; 2 µM).
`CC(C)[C@H]1NC(=O)C[C@H]2/C=C/CCSSC[C@@H](NC1=O)C(=O)N[C@H](Cc1cccc3ccccc13)C(=O)NCC(=O)O2` gave an inhibition of 0.281% (EIF2AK2 (Homo sapiens, UniProt P19525); enzyme activity, inhibitor; 10 µM).
With `CCc1nc2ccc(C(=O)NCCCN(C)C)cn2c1N(C)Cc1cccs1` the inhibition was 62.8% (ache; enzyme activity, inhibitor, Ellman; 5 µM).
For `CC(=O)NC[C@@H]1[C@@H](O)C[C@H]2[C@H](O)C[C@@H](CO)N12`, the inhibition was 38.8% (human placental β-N-acetylglucosaminidase; 0.0428 µM, run 1, together with: p-nitrophenyl GlcNAc).
With `Cc1cccc2c1cc(B(O)O)n2C(=O)OC(C)(C)C` the inhibition was under 10% (Beta-lactamase (ampC, Escherichia coli K-12, UniProt P00811); enzyme activity, inhibitor, CENTA hydrolysis absorbance; 10 µM).
`NCC1CCN(Cc2ccccc2F)CC1` gave an inhibition of 44.2% (ache; enzyme activity, inhibitor, Ellman; 20 µM).
With `O=C(CN1CN(c2ccccc2)C2(CCN(C(=O)c3cnc4[nH]ncc4c3)CC2)C1=O)NCC(F)(F)F` the inhibition was under 50% (ULK3; inhibitor; concentration not given).
The inhibition of `COc1ccc(F)cc1S(=O)(=O)Nc1cnc2c(c1)C(=O)NCCO2` is reported as 6% (CCR1 (Homo sapiens, UniProt P32246); ligand displacement, radioligand; 10 µM).
With `COc1cc2c(cc1OC)CNCC2` the inhibition was 43.7% (ache; enzyme activity, inhibitor, Ellman; 20 µM).
With `O=C(Nc1nccs1)c1c(O)c2c(n(Cc3ccccc3)c1=O)CCCC2` the inhibition was 15.9% (ppa (Escherichia coli, UniProt P0A7A9); inhibitor, counter-screen, coupling enzyme alone; 30 µM).

Some of these lines once more:
`N[C@H](C(=O)N1CCCC1)C1CCN(c2nccc3c(-c4ncc(Cl)cc4Cl)cccc23)CC1` gave an inhibition of 21% (NMDA receptor; binding, radioligand binding; 10 µM).
For `NCCc1c[nH]c2ccc(Cl)cc12`, the inhibition was 40.3% (ache; enzyme activity, inhibitor, Ellman; 20 µM).
The inhibition of `CCN(N=Cc1cnc2ccc(Br)cn12)S(=O)(=O)c1cc([N+](=O)[O-])ccc1C` is reported as 27% (PIK3CA (Homo sapiens, UniProt P42336, K776A); enzyme activity; 60 nM).
